Measurements pooled from the literature.
Protocols differ between the studies behind these lines. Numbers after ± are the reported error.
Target: Cholinesterase (BCHE, Equus caballus, UniProt P81908)
UniProt P81908, sequence (whole entry, looked up): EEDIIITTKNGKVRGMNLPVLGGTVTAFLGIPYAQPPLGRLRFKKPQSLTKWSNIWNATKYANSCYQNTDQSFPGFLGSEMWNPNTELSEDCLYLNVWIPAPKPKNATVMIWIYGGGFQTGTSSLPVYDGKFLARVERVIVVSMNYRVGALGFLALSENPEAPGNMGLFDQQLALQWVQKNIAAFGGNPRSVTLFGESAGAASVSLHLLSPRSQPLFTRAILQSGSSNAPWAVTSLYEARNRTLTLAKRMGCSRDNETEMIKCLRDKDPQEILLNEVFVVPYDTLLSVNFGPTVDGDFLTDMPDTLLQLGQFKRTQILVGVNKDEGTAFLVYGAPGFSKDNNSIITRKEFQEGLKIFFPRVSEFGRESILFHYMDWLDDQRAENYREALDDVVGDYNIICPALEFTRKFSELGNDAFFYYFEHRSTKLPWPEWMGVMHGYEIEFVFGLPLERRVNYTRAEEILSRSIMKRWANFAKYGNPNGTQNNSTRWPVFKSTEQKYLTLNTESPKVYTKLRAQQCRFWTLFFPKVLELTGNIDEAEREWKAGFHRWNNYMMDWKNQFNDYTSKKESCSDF

`O=C(O)c1cccc(Nc2cc(N3CCN(c4cccc(C(F)(F)F)c4)CC3)c3noc4c3c2C(=O)c2ccccc2-4)c1` has an inhibition of < 0% (10 µM).
With `CCCCCc1nc2ccc(/N=N/c3ccc([N+](=O)[O-])cc3)cc2c(-c2ccccc2)c1I` the inhibition was 40.5% (enzyme activity, inhibitor; 100 µM).
`COC(=O)C1=CO[C@@H](OC(C)=O)[C@@H]2C(Cn3cc(C4(O)CCCC4)nn3)=CC[C@H]12` gave an inhibition of 40.7 ± 0.23% (inhibitor; horse serum BuChE; 10000 µM).
For `COc1ccc(Nc2c3c(nc4cc(C)ccc24)CCCC3)nc1`, the inhibition was -39.7% (enzyme activity, inhibitor; 100 µM).
`COC(=O)C1=CO[C@@H](OC(C)=O)[C@@H]2C(Cn3cc(CCO)nn3)=CC[C@H]12` gave an inhibition of 35.5 ± 0.59% (inhibitor; horse serum BuChE; 10000 µM).
`O=S(=O)(F)CCc1cn(-c2cccc(Cl)c2)nn1` gave an inhibition of 71.5% (Ellman; horse; 20 µM).
`COC(=O)C1=CO[C@@H](O)[C@@H]2C(Cn3cc(-c4ccc(F)cc4)nn3)=CC[C@H]12` gave an inhibition of 84.64 ± 0.12% (inhibitor; horse serum BuChE; 10000 µM).
With `COc1ccc(Nc2c3c(nc4ccccc24)CCCC3)nc1` the inhibition was 23% (enzyme activity, inhibitor; 50 µM).
For `O=C(CCn1cnc2sc3c(c2c1=O)CCCC3)NCCc1nc2ccccc2[nH]1`, the inhibition was 5.71 ± 2.14% (inhibitor, Ellman method; 10 µM).
With `COC(=O)C1=CO[C@@H](OC(C)=O)[C@@H]2C(Cn3cc(CCO[Si](C)(C)C(C)(C)C)nn3)=CC[C@H]12` the inhibition was 9.03 ± 0.3% (inhibitor; horse serum BuChE; 10000 µM).
`O=C(/C=C/c1ccc(O)cc1)OC[C@H]1O[C@@H](Oc2c(-c3ccc(O)cc3)oc3cc(O)cc(O)c3c2=O)[C@H](O)[C@@H](O)[C@@H]1O` has an inhibition of 16.8% (enzyme activity, inhibitor, Ellman; 100 µg/mL).
`CCCCc1nc2ccc(/N=N/c3ccc(Br)cc3)cc2c(-c2ccccc2)c1I` has an inhibition of 32.2% (enzyme activity, inhibitor; 100 µM).
`COC(=O)C1=CO[C@@H](O)[C@@H]2C(Cn3cc(C4(O)CCCCC4)nn3)=CC[C@H]12` has an inhibition of 32 ± 0.74% (inhibitor; horse serum BuChE; 10000 µM).
`Ic1ccccc1/N=N/c1ccc2nc(-c3ccccc3)cc(-c3ccccc3)c2c1` gave an inhibition of 32.5% (enzyme activity, inhibitor; 100 µM).
For `O=S(=O)(F)CCc1cn(-c2ccc(F)cc2)nn1`, the inhibition was 69% (Ellman; horse; 20 µM).
With `Cc1ccc(-c2nc3ccc(/N=N/c4ccc(Cl)cc4)cc3c(-c3ccccc3)c2I)cc1` the inhibition was 18.8% (enzyme activity, inhibitor; 100 µM).
With `FC(F)(F)c1cccc(Nc2c3c(nc4ccccc24)CCCC3)c1` the inhibition was -60.9% (enzyme activity, inhibitor; 100 µM).
`O=S(=O)(F)CCc1cn(-c2ccc(-c3ccccc3)cc2)nn1` gave an inhibition of 53.6% (inhibitor, Ellman; 20 µM).
The inhibition of `COC(=O)C1=CO[C@@H](OC(C)=O)[C@@H]2C(Cn3cc(C4(O)CCCCC4)nn3)=CC[C@H]12` is reported as 42.73 ± 0.18% (inhibitor; horse serum BuChE; 10000 µM).
With `O=C(O)Cc1cccc(OC(=O)NCCCCCn2ccc3ccc(F)cc32)c1` the inhibition was 42% (enzyme activity, inhibitor, HPLC; 10 µM).
`CCCCCCCCOCc1cn(CC2=CC[C@@H]3C(C(=O)OC)=CO[C@@H](OC(C)=O)[C@H]23)nn1` has an inhibition of 37.4 ± 0.61% (inhibitor; horse serum BuChE; 10000 µM).
For `Cc1ccnc(Nc2c3c(nc4cc(C)ccc24)CCCC3)c1`, the inhibition was < -200% (enzyme activity, inhibitor; 50 µM).
With `O=C(O)c1ccc(Nc2cc(N3CCN(c4cccc(C(F)(F)F)c4)CC3)c3noc4c3c2C(=O)c2ccccc2-4)cc1` the inhibition was < 0% (10 µM).
For `O=C(/C=C/c1ccc(O)cc1)O[C@@H]1[C@@H](O)[C@H](Oc2c(-c3ccc(O)cc3)oc3cc(O)cc(O)c3c2=O)O[C@H](CO)[C@H]1O`, the inhibition was 6.9% (enzyme activity, inhibitor, Ellman; 100 µg/mL).
`COc1ccc(Nc2c3c(nc4ccccc24)CCCC3)cc1` gave an inhibition of -106% (enzyme activity, inhibitor; 100 µM).
For `CCOC(=O)/C=C/c1c(-c2ccc(C)cc2)nc2ccc(/N=N/c3ccc([N+](=O)[O-])cc3)cc2c1-c1ccccc1`, the inhibition was 39.7% (enzyme activity, inhibitor; 100 µM).
The inhibition of `c1ccc2c(Nc3c4c(nc5ccccc35)CCCC4)cccc2c1` is reported as 60.1% (enzyme activity, inhibitor; 50 µM).
`Cc1ccc(-c2nc3ccc(/N=N/c4ccc(Br)cc4)cc3c(-c3ccccc3)c2I)cc1` gave an inhibition of 14.9% (enzyme activity, inhibitor; 100 µM).
The inhibition of `Cc1ccnc(Nc2c3c(nc4ccc(Cl)cc24)CCCC3)c1` is reported as 97.1% (enzyme activity, inhibitor; 100 µM).
For `O=C(/C=C/c1ccc(O)cc1)OC[C@H]1O[C@@H](Oc2c(-c3ccc(O)cc3)oc3cc(O)cc(O)c3c2=O)[C@H](O)[C@@H](OC(=O)/C=C/c2ccc(O)cc2)[C@@H]1O`, the inhibition was 52.1% (enzyme activity, inhibitor, Ellman; 100 µg/mL).
With `c1cc(Nc2c3c(nc4ccccc24)CCCC3)c2cccnc2c1` the inhibition was -107% (enzyme activity, inhibitor; 50 µM).
`COC(=O)C1=CO[C@@H](OC(C)=O)[C@@H]2C(Cn3cc(-c4ccc(F)cc4)nn3)=CC[C@H]12` has an inhibition of 33.37 ± 0.18% (inhibitor; horse serum BuChE; 10000 µM).

For quick reference, copied from above:
`Cc1ccc(-c2nc3ccc(/N=N/c4ccc(Br)cc4)cc3c(-c3ccccc3)c2I)cc1` gave an inhibition of 14.9% (enzyme activity, inhibitor; 100 µM).
The inhibition of `Cc1ccnc(Nc2c3c(nc4ccc(Cl)cc24)CCCC3)c1` is reported as 97.1% (enzyme activity, inhibitor; 100 µM).
For `O=C(/C=C/c1ccc(O)cc1)OC[C@H]1O[C@@H](Oc2c(-c3ccc(O)cc3)oc3cc(O)cc(O)c3c2=O)[C@H](O)[C@@H](OC(=O)/C=C/c2ccc(O)cc2)[C@@H]1O`, the inhibition was 52.1% (enzyme activity, inhibitor, Ellman; 100 µg/mL).
With `c1cc(Nc2c3c(nc4ccccc24)CCCC3)c2cccnc2c1` the inhibition was -107% (enzyme activity, inhibitor; 50 µM).
